Measurements pooled from the literature.
Parts stem from different laboratories: compare values within a part only.
UniProt Q05655, sequence (whole entry, looked up): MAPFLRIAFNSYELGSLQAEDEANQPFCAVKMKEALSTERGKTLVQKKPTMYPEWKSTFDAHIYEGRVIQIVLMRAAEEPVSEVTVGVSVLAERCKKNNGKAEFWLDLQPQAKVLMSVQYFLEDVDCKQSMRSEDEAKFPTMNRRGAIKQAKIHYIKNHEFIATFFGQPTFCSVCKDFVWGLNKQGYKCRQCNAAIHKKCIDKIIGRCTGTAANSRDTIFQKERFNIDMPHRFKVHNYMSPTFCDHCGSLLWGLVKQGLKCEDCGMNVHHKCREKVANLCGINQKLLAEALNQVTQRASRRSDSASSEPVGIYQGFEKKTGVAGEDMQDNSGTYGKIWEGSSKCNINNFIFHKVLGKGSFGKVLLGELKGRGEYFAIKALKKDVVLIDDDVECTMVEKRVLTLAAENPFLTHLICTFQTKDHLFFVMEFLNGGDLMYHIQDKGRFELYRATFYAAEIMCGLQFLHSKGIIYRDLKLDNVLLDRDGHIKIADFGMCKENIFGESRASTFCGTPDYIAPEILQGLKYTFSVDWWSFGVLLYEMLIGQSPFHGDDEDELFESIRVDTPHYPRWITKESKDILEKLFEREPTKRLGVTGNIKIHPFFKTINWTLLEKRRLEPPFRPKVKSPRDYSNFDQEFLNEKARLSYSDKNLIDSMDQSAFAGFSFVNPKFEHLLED
UniProt P51813, sequence (whole entry, looked up): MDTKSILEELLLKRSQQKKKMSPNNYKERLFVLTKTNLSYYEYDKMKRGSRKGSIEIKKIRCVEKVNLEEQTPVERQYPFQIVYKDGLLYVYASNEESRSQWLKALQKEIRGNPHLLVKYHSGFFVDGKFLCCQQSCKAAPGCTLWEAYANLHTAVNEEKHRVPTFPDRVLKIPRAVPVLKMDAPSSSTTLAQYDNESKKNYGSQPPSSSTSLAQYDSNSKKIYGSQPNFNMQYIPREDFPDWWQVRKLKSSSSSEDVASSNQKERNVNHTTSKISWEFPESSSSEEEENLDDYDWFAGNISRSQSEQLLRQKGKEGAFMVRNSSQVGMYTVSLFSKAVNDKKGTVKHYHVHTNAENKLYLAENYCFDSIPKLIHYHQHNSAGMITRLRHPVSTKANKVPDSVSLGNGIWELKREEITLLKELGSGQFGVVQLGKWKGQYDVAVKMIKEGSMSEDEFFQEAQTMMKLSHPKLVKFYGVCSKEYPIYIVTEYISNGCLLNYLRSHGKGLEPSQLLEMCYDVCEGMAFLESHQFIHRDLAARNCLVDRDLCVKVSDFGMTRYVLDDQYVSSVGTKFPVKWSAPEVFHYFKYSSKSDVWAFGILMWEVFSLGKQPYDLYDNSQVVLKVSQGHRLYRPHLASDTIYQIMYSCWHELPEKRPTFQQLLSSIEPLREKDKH
UniProt Q99558, sequence (whole entry, looked up): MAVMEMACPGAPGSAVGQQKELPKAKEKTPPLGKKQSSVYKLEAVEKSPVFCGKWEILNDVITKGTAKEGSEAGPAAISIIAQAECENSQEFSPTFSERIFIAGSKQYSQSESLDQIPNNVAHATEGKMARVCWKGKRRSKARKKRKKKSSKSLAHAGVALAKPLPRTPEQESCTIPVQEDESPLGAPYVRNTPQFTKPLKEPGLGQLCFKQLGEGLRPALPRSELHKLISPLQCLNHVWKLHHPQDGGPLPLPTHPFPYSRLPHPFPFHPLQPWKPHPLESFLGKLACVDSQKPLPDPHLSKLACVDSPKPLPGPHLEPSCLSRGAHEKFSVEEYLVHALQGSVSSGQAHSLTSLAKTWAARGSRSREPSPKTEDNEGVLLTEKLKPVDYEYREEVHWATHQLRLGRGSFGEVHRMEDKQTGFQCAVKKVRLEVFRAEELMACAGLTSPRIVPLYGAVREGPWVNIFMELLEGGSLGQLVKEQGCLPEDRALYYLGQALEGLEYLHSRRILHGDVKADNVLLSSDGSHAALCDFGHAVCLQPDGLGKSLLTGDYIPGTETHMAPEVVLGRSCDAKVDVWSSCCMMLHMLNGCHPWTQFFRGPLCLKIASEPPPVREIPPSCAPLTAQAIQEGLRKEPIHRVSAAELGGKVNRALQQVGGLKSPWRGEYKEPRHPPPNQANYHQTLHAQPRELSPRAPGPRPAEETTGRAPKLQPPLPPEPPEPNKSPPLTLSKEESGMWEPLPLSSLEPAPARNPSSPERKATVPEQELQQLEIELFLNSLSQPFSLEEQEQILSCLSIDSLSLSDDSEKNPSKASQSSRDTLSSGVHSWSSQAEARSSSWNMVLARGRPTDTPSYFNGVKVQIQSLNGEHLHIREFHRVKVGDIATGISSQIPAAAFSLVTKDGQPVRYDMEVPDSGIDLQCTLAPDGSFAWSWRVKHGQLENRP
UniProt Q9Y2I7, sequence (whole entry, looked up): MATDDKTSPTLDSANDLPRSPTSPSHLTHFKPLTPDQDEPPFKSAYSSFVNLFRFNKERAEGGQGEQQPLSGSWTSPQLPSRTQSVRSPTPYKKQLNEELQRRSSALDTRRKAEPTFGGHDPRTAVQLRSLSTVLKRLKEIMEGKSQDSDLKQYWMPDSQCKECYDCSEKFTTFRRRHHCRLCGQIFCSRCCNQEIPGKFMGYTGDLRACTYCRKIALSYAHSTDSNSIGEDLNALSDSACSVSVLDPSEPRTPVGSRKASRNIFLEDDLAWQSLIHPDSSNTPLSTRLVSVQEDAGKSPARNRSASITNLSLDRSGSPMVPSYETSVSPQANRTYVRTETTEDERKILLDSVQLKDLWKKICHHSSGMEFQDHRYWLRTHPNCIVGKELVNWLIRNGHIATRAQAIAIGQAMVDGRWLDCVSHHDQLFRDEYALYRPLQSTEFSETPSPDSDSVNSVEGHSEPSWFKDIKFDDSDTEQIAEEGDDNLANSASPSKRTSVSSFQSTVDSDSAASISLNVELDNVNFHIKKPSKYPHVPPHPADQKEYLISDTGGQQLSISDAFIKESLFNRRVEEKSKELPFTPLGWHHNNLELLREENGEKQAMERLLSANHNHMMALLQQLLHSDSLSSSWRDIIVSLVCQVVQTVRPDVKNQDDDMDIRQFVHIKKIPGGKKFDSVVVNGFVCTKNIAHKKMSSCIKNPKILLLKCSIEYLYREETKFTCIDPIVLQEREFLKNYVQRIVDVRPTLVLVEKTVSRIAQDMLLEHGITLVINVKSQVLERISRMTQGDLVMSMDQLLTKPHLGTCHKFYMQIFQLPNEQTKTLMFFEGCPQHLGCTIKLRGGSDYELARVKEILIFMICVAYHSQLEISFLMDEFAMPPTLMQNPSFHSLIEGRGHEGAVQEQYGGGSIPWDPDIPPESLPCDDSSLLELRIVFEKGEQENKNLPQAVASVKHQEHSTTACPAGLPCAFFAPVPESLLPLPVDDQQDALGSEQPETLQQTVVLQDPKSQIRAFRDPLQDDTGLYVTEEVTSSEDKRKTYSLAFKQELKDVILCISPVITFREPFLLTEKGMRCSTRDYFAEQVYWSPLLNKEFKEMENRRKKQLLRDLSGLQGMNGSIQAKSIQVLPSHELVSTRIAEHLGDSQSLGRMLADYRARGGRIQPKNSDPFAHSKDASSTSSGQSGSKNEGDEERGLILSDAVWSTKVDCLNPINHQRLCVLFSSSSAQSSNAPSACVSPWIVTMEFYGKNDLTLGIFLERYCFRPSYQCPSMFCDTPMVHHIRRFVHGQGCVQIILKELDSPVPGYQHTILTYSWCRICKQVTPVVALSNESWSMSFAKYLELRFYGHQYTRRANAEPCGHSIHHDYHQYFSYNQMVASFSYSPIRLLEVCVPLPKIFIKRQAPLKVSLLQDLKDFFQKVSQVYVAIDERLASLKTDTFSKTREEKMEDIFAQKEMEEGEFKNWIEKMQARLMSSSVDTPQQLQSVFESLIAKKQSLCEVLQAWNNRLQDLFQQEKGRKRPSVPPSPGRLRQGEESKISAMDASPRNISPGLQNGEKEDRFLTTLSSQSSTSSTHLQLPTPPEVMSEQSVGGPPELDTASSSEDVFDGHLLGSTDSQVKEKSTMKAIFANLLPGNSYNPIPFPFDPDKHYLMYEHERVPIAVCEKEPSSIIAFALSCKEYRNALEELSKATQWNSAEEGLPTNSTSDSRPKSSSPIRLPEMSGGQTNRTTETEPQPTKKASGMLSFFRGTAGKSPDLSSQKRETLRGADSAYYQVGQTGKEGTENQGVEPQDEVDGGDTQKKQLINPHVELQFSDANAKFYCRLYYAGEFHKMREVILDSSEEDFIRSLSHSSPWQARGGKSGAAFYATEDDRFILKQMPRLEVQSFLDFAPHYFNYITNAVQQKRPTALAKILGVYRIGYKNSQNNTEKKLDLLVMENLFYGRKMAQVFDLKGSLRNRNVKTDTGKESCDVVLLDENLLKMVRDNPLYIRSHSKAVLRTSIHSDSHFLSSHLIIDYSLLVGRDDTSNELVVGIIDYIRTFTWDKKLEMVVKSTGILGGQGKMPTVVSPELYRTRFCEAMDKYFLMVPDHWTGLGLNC
UniProt P36507, sequence (whole entry, looked up): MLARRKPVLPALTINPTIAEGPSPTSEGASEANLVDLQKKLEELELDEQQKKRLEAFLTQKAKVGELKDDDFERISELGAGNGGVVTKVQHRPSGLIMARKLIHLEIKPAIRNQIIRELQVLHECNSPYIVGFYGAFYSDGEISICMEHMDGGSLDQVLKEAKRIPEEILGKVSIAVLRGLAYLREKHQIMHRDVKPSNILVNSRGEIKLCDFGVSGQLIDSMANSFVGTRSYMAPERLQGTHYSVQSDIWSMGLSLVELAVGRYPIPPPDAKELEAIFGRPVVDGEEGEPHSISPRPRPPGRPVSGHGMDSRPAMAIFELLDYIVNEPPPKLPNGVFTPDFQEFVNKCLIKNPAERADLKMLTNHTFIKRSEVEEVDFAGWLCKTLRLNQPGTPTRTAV

Set 1 — observed: cell-free assay; technique: competition with immobilised ligand; tested at: 1 µM
Compound: Cc1c(NC(=O)c2cc(C(N)=O)nc3cc(F)ccc23)c(C(F)(F)F)nn1Cc1ccc(C#N)cc1
1-phosphatidylinositol 3-phosphate 5-kinase (PIKFYVE, Homo sapiens, UniProt Q9Y2I7) — remaining binding: 92%.
For Fibroblast growth factor receptor 4 (FGFR4, Homo sapiens, UniProt P22455): remaining binding read 100%.
It gave 85% for remaining binding (Cytoplasmic tyrosine-protein kinase BMX (BMX, Homo sapiens, UniProt P51813)).
It gave 90% for remaining binding (SNF-related serine/threonine-protein kinase (SNRK, Homo sapiens, UniProt Q9NRH2)).
The remaining binding was 98% (Serine/threonine-protein kinase N1 (PKN1, Homo sapiens, UniProt Q16512)).
For Mitogen-activated protein kinase kinase kinase 14 (MAP3K14, Homo sapiens, UniProt Q99558): remaining binding read 72%.
The remaining binding was 100% (Tyrosine-protein kinase ABL1, non-phosphorylated (ABL1, Homo sapiens, UniProt P00519, H396P)).
Protein kinase C delta type (PRKCD, Homo sapiens, UniProt Q05655) — remaining binding: 95%.
The remaining binding was 58% (Mast/stem cell growth factor receptor Kit (KIT, Homo sapiens, UniProt P10721, V559D/V654A)).
Dual specificity mitogen-activated protein kinase kinase 2 (MAP2K2, Homo sapiens, UniProt P36507) — remaining binding: 89%.
SRSF protein kinase 2 (SRPK2, Homo sapiens, UniProt P78362) — remaining binding: 100%.
For Tyrosine-protein kinase ABL1, non-phosphorylated (ABL1, Homo sapiens, UniProt P00519): remaining binding read 84%.
For Serine/threonine-protein kinase Nek10 (NEK10, Homo sapiens, UniProt Q6ZWH5): remaining binding read 83%.

Set 2 — organism: Sarcocystis neurona; observed: parasite growth; tested at: 10 µM; time: 96 h; setting: second screen; reference: untreated
`Nc1nc(N)c2nc(-c3ccccc3)c(N)nc2n1`: “log2 fold change” 0.89.
Under “log2 fold change”, `CCc1c(C)[nH]c2c1C(=O)C(CN1CCOCC1)CC2` (centres unmarked) is recorded as 0.44.
Under “log2 fold change”, `CCOC(=O)[C@H](CCc1ccccc1)N[C@H]1CCc2ccccc2N(CC(=O)O)C1=O` is recorded as 0.16.
For `C[C@]12C=CC(=O)C=C1CC[C@@H]1[C@@H]2C(=O)C[C@@]2(C)[C@H]1CC[C@]2(O)C(=O)CO`, “log2 fold change” read 0.23.
Under “log2 fold change”, `OCCN1C[C@H](O)[C@@H](O)[C@H](O)[C@H]1CO` is recorded as -0.00693.
`COc1cc(CNC(=O)CCCC/C=C\C(C)C)ccc1O`: “log2 fold change” 0.72.
For `CCOC(=O)C1=C(C)NC(C)=C(C(=O)OC)C1c1cccc([N+](=O)[O-])c1` (centres unmarked), “log2 fold change” read 0.45.
`COc1cc(C)c(/C=C/C(C)=C/C=C/C(C)=C/C(=O)O)c(C)c1C` — result for “log2 fold change”: 1.
For `CCN(CC)CC#CCOC(=O)C(O)(c1ccccc1)C1CCCCC1` (centres unmarked), “log2 fold change” read 0.32.
Under “log2 fold change”, `CCN(CC)CCOC(=O)c1ccc(N)cc1` is recorded as 0.07.
For `CC1(C)S[C@@H]2[C@H](NC(=O)COc3ccccc3)C(=O)N2[C@H]1C(=O)O`, “log2 fold change” read 0.15.

Other studies, line by line
`CCOC(=O)[C@@H]1CSCC(=O)N[C@H](CC)C(=O)N(CC(C)C)CC(=O)N[C@@H](CC(C)C)C(=O)N(C)[C@H](C)C(=O)N(C)[C@@H](C)C(=O)N[C@@H](CC(C)C)C(=O)N(C)[C@H](C)C(=O)N[C@@H](CC(C)C)C(=O)N1C`: “log k' (60)” 0.658 (PRP-column chromatography).
For `C#Cc1cccc(Nc2ncnc3cc(OCCOC)c(OCCOC)cc23)c1`, the remaining signal was 102% (Cyclin-dependent kinase 9, with cyclin K (CDK9, Homo sapiens, UniProt P50750); cell-free assay; 0.5 µM).
